{"data": "Results pooled from the literature", "organism": "Escherichia coli", "note": "Compare with care: the assays were run in different laboratories. ± marks the error that the study gave. Bridge positions count the residues as written; N and C are the ends. Ends that are not written are not given here. * marks the point of attachment."}
{"Molecule": "CC(C)C[C@H](NC(=O)[C@H](C)NC(=O)[C@H](CC(C)C)NC(=O)[C@H](CCCCN)NC(=O)[C@H](CCCCN)NC(=O)[C@H](Cc1c[nH]c2ccccc12)NC(=O)[C@H](CC(C)C)NC(=O)[C@H](CC(C)C)NC(=O)[C@H](C)NC(=O)[C@H](CC(C)C)NC(=O)[C@H](CCCCN)NC(=O)[C@H](CCCCN)NC(=O)[C@@H]1CCCN1C(=O)[C@H](C)NC(=O)[C@H](CC(C)C)NC(=O)[C@H](C)NC(=O)[C@H](CC(C)C)NC(=O)[C@H](CCCCN)NC(=O)[C@@H](N)CCCCN)C(=O)N[C@@H](C)C(=O)N[C@@H](CC(C)C)C(=O)N[C@@H](CCCCN)C(=O)N[C@@H](CCCCN)C(=O)N[C@@H](C)C(N)=O", "test": "broth microdilution", "system": "NCTC 9001", "conditions": "overnight, 37 °C", "quantity": "MIC50", "value": "0.8 ± 0.03 µM"}
{"Molecule": "Myristoyl-ACPIFTKIQGTYRGKAKCK (disulfide 2-18 (inferred)) (N-myristoyl, disulfide; Myristoyl = CCCCCCCCCCCCCC(=O)*)", "system": "K-12 sample A (CGSC sample B)", "conditions": "MBC, 2 h, pH 7.4, 37 °C, added: E. coli K-235 LPS at peptide:LPS 1:5 w/w", "quantity": "antibacterial activity", "value": "inhibited"}
{"Molecule": "CC[C@H](C)[C@H](NC(=O)CN)C(=O)NCC(=O)N[C@@H](C)C(=O)N[C@H](C(=O)N[C@@H](CC(C)C)C(=O)N[C@@H](CCCCN)C(=O)N[C@H](C(=O)N[C@@H](CC(C)C)C(=O)N[C@H](C(=O)N[C@H](C(=O)NCC(=O)N[C@@H](CC(C)C)C(=O)N1CCC[C@H]1C(=O)N[C@@H](C)C(=O)N[C@@H](CC(C)C)C(=O)N[C@H](C(=O)N[C@@H](CO)C(=O)N[C@@H](Cc1c[nH]c2ccccc12)C(=O)N[C@H](C(=O)N[C@@H](CCCCN)C(=O)N[C@@H](CCCNC(=N)N)C(=O)N[C@@H](CCCCN)C(=O)N[C@@H](CCCNC(=N)N)C(=O)N[C@@H](CCC(N)=O)C(=O)N[C@@H](CCC(N)=O)C(N)=O)[C@@H](C)CC)[C@@H](C)CC)[C@@H](C)O)[C@@H](C)O)C(C)C)C(C)C", "system": "DH5α", "conditions": "24 h, 37 °C", "quantity": "MBC", "value": "10 µM"}
{"Molecule": "GIGKWLHSAKKFGKAFVGEIMNS-NH2 (C-amide)", "test": "bacterial growth, broth microdilution", "system": "peptide, NCTC 9001, Mueller-Hinton broth", "conditions": "overnight, 37 °C", "quantity": "MIC50", "value": "4.21 ± 1.29 µg/mL"}
{"Molecule": "CC[C@H](C)[C@H](NC(=O)[C@@H]1CCCN1C(=O)[C@H](CCCCN)NC(=O)[C@@H]1CCCN1C(=O)[C@@H]1CCCN1C(=O)[C@@H](NC(=O)[C@@H]1CCCN1C(=O)[C@H](CCCNC(=N)N)NC(=O)[C@@H]1CCCN1C(=O)[C@H](CCCNC(=N)N)NC(=O)[C@H](Cc1ccc(O)cc1)NC(=O)[C@H](CO)NC(=O)CNC(=O)[C@H](CCCCN)NC(=O)[C@H](CC(=O)O)NC(=O)[C@@H](N)C(C)C)[C@@H](C)O)C(=O)N[C@@H](Cc1ccc(O)cc1)C(=O)N[C@@H](CC(N)=O)C(=O)N[C@@H](CCCNC(=N)N)C(=O)N[C@@H](CC(N)=O)C(=O)O", "test": "broth microdilution", "system": "BW25113, 20% M9 medium", "quantity": "MIC", "value": "0.3 ± 0.07 µM"}
{"Molecule": "CC(C)C[C@H](NC(=O)[C@H](C)NC(=O)[C@H](CC(C)C)NC(=O)[C@H](CCCCN)NC(=O)[C@H](CCCCN)NC(=O)[C@H](Cc1c[nH]c2ccccc12)NC(=O)[C@H](CC(C)C)NC(=O)[C@H](CC(C)C)NC(=O)[C@H](C)NC(=O)[C@@H]1CCCN1C(=O)[C@H](CCCCN)NC(=O)[C@H](CCCCN)NC(=O)[C@H](CC(C)C)NC(=O)[C@H](C)NC(=O)[C@H](CC(C)C)NC(=O)[C@H](C)NC(=O)[C@H](CC(C)C)NC(=O)[C@H](CCCCN)NC(=O)[C@@H](N)CCCCN)C(=O)N[C@@H](C)C(=O)N[C@@H](CC(C)C)C(=O)N[C@@H](CCCCN)C(=O)N[C@@H](CCCCN)C(=O)N[C@@H](C)C(N)=O", "test": "broth microdilution", "system": "TOP10", "conditions": "overnight, 37 °C", "quantity": "MIC50", "value": "0.47 ± 0.15 µM"}
{"Molecule": "CC(C)C[C@H](NC(=O)[C@H](CCCNC(=N)N)NC(=O)[C@H](CCCCN)NC(=O)[C@@H](N)Cc1c[nH]c2ccccc12)C(=O)N[C@@H](CCCNC(=N)N)C(=O)N[C@@H](Cc1c[nH]c2ccccc12)C(=O)N[C@@H](CCCNC(=N)N)C(=O)N[C@@H](CCCNC(=N)N)C(=O)N[C@@H](Cc1ccccc1)C(=O)N[C@@H](Cc1ccccc1)C(=O)O", "test": "bacterial killing, colony count", "system": "BL21", "conditions": "1 h, pH 7, 37 °C", "quantity": "EC50", "value": "3.1 µg/mL"}
{"Molecule": "CC(C)C[C@H](NC(=O)[C@H](C)NC(=O)[C@H](CCCCN)NC(=O)[C@H](C)NC(=O)[C@H](CC(C)C)NC(=O)[C@H](CCCCN)NC(=O)[C@H](CC(C)C)NC(=O)[C@H](Cc1c[nH]c2ccccc12)NC(=O)[C@H](CC(C)C)NC(=O)[C@H](CC(C)C)NC(=O)[C@H](C)NC(=O)[C@@H]1CCCN1C(=O)[C@H](CC(C)C)NC(=O)[C@H](CCCCN)NC(=O)[C@H](CC(C)C)NC(=O)[C@H](C)NC(=O)[C@H](CCCCN)NC(=O)[C@H](C)NC(=O)[C@H](CC(C)C)NC(=O)[C@H](CCCCN)NC(=O)[C@@H](N)CCCCN)C(=O)N[C@@H](CCCCN)C(=O)N[C@@H](CCCCN)C(=O)N[C@@H](C)C(N)=O", "test": "broth microdilution", "system": "NCTC 9001", "conditions": "overnight, 37 °C", "quantity": "MIC50", "value": "1.62 ± 0.17 µM"}
{"Molecule": "CCCCN1C=C(c2ccc3ccccc3n2)C(C)c2ccccc21 (stereo not shown)", "test": "lacZ reporter expression", "system": "VirF-independent lacZ control", "conditions": "3 h, 37 °C, 6.2% DMSO, added: 1 mM IPTG", "quantity": "IC50", "value": "> 100000 nM"}
{"Molecule": "CC(=O)Oc1cccc(C(=O)N[C@H]2COC(=O)[C@@H](NC(=O)c3cccc(OC(C)=O)c3OC(C)=O)[C@H](CCCNC(=O)CCSSCCCCCCCCCCC(=O)NC[C@H](NC(=O)[C@H](CCCCN)NC(=O)N[C@H](C(=O)O)C(C)C)C(=O)NCCCN[C@@H](C[C@H]3O[C@@H](n4ccc(=O)[nH]c4=O)[C@H](O)[C@@H]3O)C(=O)O)OC(=O)[C@@H](NC(=O)c3cccc(OC(C)=O)c3OC(C)=O)COC2=O)c1OC(C)=O", "test": "bacterial growth, optical density", "system": "ΔtolC", "quantity": "IC50", "value": "2000 ± 1700 nM"}
{"Molecule": "CC(C)C[C@@H](NC(=O)[C@H](C)NC(=O)CNC(=O)[C@@H](NC=O)C(C)C)C(=O)N[C@@H](C)C(=O)N[C@@H](C(=O)N[C@H](C(=O)N[C@@H](C(=O)N[C@@H](Cc1c[nH]c2ccccc12)C(=O)N[C@H](CC(C)C)C(=O)N[C@@H](Cc1c[nH]c2ccccc12)C(=O)N[C@H](CC(C)C)C(=O)N[C@@H](Cc1c[nH]c2ccccc12)C(=O)N[C@H](CC(C)C)C(=O)N[C@@H](Cc1c[nH]c2ccccc12)C(=O)NCCO)C(C)C)C(C)C)C(C)C", "system": "K-12 sample A (CGSC sample B)", "quantity": "MBC", "value": "8 µM"}
{"Molecule": "CC(C)C[C@H](NC(=O)[C@H](C)NC(=O)[C@H](CC(C)C)NC(=O)[C@H](CCCCN)NC(=O)[C@H](CC(C)C)NC(=O)[C@H](CCCCN)NC(=O)[C@@H](N)CCCCN)C(=O)N[C@@H](C)C(=O)N[C@@H](CCCCN)C(=O)N[C@@H](CC(C)C)C(=O)N[C@@H](C)C(=O)N[C@@H](CC(C)C)C(=O)N[C@@H](CC(C)C)C(=O)N[C@@H](Cc1c[nH]c2ccccc12)C(=O)N[C@@H](CCCCN)C(=O)N[C@@H](C)C(=O)N[C@@H](CC(C)C)C(=O)N[C@@H](C)C(=O)N[C@@H](CC(C)C)C(=O)N[C@@H](CCCCN)C(=O)N[C@@H](CC(C)C)C(=O)N[C@@H](CCCCN)C(=O)N[C@@H](CCCCN)C(=O)N[C@@H](C)C(N)=O", "test": "broth microdilution", "system": "TOP10", "conditions": "overnight, 37 °C", "quantity": "MIC50", "value": "0.73 ± 0.4 µM"}
{"Molecule": "GSS(Octanoyl)FLSPEHQRVQQRKESKKPPAKLQPR (acyl-ghrelin; Octanoyl = CCCCCCCC(=O)*; sequence looked up)", "test": "LIVE/DEAD staining", "system": "peptide, sodium phosphate buffer", "conditions": "100 µg/mL, 2 h, pH 6.8, 37 °C", "quantity": "dead bacteria", "value": "~15%"}
{"note": "Excerpt of the above:"}
{"Molecule": "GIGKWLHSAKKFGKAFVGEIMNS-NH2 (C-amide)", "test": "bacterial growth, broth microdilution", "system": "peptide, NCTC 9001, Mueller-Hinton broth", "conditions": "overnight, 37 °C", "quantity": "MIC50", "value": "4.21 ± 1.29 µg/mL"}
{"Molecule": "CC[C@H](C)[C@H](NC(=O)[C@@H]1CCCN1C(=O)[C@H](CCCCN)NC(=O)[C@@H]1CCCN1C(=O)[C@@H]1CCCN1C(=O)[C@@H](NC(=O)[C@@H]1CCCN1C(=O)[C@H](CCCNC(=N)N)NC(=O)[C@@H]1CCCN1C(=O)[C@H](CCCNC(=N)N)NC(=O)[C@H](Cc1ccc(O)cc1)NC(=O)[C@H](CO)NC(=O)CNC(=O)[C@H](CCCCN)NC(=O)[C@H](CC(=O)O)NC(=O)[C@@H](N)C(C)C)[C@@H](C)O)C(=O)N[C@@H](Cc1ccc(O)cc1)C(=O)N[C@@H](CC(N)=O)C(=O)N[C@@H](CCCNC(=N)N)C(=O)N[C@@H](CC(N)=O)C(=O)O", "test": "broth microdilution", "system": "BW25113, 20% M9 medium", "quantity": "MIC", "value": "0.3 ± 0.07 µM"}
